Measurements from different studies.
Each line is one published result; not all experiments were run side by side. ± marks the error that the study gave. Non-standard residues stand in square brackets, D forms with d.
B1: carD (Mycobacterium tuberculosis, UniProt P9WJG3); chain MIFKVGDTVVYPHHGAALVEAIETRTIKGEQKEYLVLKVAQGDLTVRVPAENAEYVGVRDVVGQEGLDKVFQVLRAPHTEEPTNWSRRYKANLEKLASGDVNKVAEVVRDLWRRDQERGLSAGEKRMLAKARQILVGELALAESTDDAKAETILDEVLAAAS
B2: FphE (Staphylococcus aureus, UniProt Q2FDS6); covalent boron inhibitor; chain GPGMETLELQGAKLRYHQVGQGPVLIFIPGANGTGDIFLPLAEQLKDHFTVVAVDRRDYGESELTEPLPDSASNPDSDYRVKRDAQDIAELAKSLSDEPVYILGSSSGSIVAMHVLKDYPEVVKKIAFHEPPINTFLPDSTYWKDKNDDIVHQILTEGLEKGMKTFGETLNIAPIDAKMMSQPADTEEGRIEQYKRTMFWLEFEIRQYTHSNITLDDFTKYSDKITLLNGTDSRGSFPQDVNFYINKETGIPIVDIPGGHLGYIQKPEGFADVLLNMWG
B3: p7 proteoliposomes (hepatitis C virus, UniProt P27958); also: 3 methionines of construct stated, only one in given chain; photo-leucine, photo-methionine substitutions; sequence looked up; chain A[L‑photo‑leucine]EN[L‑photo‑leucine]VI[L‑photo‑leucine]NAAS[L‑photo‑leucine]AGTHG[L‑photo‑leucine]VSF[L‑photo‑leucine]VFFCFAWY[L‑photo‑leucine]KGRWVPGAVYA[L‑photo‑leucine]YG[L‑photo‑methionine]WP[L‑photo‑leucine][L‑photo‑leucine][L‑photo‑leucine][L‑photo‑leucine][L‑photo‑leucine][L‑photo‑leucine]A[L‑photo‑leucine]PQRAYA
B4: coat protein (Cowpea chlorotic mottle virus, UniProt P03601); chain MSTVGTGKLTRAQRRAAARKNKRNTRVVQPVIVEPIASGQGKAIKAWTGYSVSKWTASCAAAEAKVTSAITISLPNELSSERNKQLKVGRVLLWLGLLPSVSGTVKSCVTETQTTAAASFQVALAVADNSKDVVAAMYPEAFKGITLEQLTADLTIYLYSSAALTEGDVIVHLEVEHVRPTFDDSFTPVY
B5: gp41 residues 1-194 (HIV-1, UniProt O70902); chain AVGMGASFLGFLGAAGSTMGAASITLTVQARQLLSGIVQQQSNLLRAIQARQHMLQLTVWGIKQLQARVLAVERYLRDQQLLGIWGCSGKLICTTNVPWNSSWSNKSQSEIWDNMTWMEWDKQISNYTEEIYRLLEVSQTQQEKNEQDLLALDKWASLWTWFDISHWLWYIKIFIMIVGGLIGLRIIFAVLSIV
B6: coat protein (chlorotic cowpea mottle virus, UniProt P03601); sequence looked up; chain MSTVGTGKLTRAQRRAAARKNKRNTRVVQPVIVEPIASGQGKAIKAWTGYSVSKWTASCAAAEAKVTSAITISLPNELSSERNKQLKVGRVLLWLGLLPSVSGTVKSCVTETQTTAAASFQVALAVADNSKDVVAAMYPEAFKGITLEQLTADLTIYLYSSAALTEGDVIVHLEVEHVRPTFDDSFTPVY
B7: rpoA 1-347 (Mycobacterium tuberculosis, UniProt P9WGZ1); chain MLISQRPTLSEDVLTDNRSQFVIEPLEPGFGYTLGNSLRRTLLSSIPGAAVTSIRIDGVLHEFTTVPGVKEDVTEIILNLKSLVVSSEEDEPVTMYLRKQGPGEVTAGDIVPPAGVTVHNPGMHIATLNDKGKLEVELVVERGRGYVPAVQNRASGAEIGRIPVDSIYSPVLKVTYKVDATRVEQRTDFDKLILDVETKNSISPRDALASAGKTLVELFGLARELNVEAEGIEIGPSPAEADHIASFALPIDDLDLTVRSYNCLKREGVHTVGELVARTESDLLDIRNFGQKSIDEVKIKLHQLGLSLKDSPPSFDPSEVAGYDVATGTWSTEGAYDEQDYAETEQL
B8: PA0254 (Pseudomonas aeruginosa, UniProt Q9I6N5); chain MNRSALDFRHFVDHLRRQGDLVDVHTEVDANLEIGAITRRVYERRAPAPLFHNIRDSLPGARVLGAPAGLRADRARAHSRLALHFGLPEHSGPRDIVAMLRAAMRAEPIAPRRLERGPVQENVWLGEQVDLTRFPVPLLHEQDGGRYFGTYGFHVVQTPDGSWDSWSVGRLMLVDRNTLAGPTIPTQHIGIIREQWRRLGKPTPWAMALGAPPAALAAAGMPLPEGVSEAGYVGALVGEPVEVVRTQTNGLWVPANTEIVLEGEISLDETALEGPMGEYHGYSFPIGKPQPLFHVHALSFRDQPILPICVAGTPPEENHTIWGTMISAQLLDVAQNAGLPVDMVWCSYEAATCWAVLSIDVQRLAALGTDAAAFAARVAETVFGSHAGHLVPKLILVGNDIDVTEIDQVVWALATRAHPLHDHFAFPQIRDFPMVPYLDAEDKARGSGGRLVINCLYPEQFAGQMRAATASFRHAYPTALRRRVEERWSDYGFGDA
B9: ORF31 ectodomain 72-742 GSAS substitution 491-495 (varicella-zoster virus, UniProt P09257); chain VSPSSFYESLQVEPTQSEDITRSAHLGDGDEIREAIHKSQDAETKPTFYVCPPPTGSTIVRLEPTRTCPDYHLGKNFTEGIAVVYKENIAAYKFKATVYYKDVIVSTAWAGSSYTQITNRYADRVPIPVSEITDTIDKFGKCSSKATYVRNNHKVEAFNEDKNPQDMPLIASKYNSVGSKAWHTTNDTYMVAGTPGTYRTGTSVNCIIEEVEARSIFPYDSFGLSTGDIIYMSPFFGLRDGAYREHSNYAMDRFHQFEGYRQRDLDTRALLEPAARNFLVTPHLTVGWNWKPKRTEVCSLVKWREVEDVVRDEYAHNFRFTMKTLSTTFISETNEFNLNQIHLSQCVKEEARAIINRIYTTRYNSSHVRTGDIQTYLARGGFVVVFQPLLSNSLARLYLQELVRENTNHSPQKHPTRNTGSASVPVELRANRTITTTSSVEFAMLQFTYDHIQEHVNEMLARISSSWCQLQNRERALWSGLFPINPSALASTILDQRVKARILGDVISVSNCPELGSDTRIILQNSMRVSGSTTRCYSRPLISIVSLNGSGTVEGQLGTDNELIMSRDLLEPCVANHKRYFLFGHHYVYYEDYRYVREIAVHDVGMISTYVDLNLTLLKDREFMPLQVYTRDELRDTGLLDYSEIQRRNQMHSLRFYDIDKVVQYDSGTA
B10: coat protein VLP 1-188 A31C/S137C (Physalis mottle virus, UniProt P36351); chain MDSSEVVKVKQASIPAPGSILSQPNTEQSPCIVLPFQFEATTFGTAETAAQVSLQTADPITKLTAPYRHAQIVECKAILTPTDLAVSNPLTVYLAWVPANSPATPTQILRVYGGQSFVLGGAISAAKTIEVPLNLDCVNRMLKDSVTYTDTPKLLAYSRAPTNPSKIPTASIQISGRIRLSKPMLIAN

Substance	target or system	test	test system	conditions	endpoint	result
B1 (carD)	rpoB 47-433 (Mycobacterium tuberculosis, UniProt P9WGY9)	DSF	–	–	melting temperature	39.2 ± 0.1 °C
B2 (FphE)	itself	crystal structure	–	–	binding	binds
B3 (p7 proteoliposomes)	itself	cross-linking	liposomes	–	subunits per oligomer	6
BM2 transmembrane peptide (Influenza B virus)	–	solid-state NMR, refers to: His19	VM+ membrane pellets	243 K, membrane-bound tetramer, no drug, second protonation	pKa	5.7
RPIIWIGQEISRVGDRENAYYAR	Apoptosis regulator BHRF1 (Epstein-Barr virus, UniProt P03182)	binding, fluorescence anisotropy	peptide	–	Kd	2.2 ± 1.3 nM
Prnp fragment (mouse) (sequence not shown)	itself	fluorescence titration	–	–	binding	binds
B4 (coat protein)	itself	cryo-EM	–	–	binding	binds
nitroalkane oxidase (Fusarium oxysporum, UniProt Q8X1D8)	CCCCCC[N+](=O)[O-]	steady-state kinetics	–	pH 8, 30 °C, added: O2	Km	40 µM
B5 (gp41 residues 1-194)	itself	analytical ultracentrifugation	–	–	Kd	1000 nM
C protein fragment (Measles virus) (sequence not shown)	itself	cryo-EM structure	–	–	subunits per oligomer	2
B6 (coat protein)	itself	SEC	–	–	binding	binds
B7 (rpoA 1-347)	itself	native MS	–	–	subunits per oligomer	2
hsaD (Mycobacterium tuberculosis, UniProt P9WNH5)	C/C(=C\C=C(/O)C(=O)O)C(=O)CC[C@@H]1C(=O)CC[C@]2(C)C(=O)CC[C@@H]12	steady-state kinetics	–	pH 7.5, 25 °C	Km	34 µM
P protein (Measles virus, UniProt P03422)	itself	cryo-EM structure	–	–	subunits per oligomer	4
FphE (Staphylococcus aureus, UniProt Q2FDS6)	itself	SEC-SAXS	–	–	subunits per oligomer	2
B8 (PA0254)	O=C(O)c1ccc[nH]1	steady-state kinetics	–	pH 6, apparent	kcat	35.8 ± 0.8 s⁻¹
VP35 (Ebola virus, UniProt Q05127)	itself	SEC-MALS	–	–	subunits per oligomer	4
VP39 (Autographa californica multiple nucleopolyhedrovirus, UniProt P17499)	itself	cryo-EM	–	–	subunits per oligomer	2
B9	itself	cryo-EM	–	–	subunits per oligomer	3
hsaC (Mycobacterium tuberculosis, UniProt P9WNW7)	Cc1ccc(O)c(O)c1CC[C@@H]1C(=O)CC[C@]2(C)[C@@H]([C@H](C)C(=O)SCCNC(=O)CCNC(=O)[C@H](O)C(C)(C)COP(=O)(O)OP(=O)(O)OC[C@H]3O[C@@H](n4cnc5c(N)ncnc54)[C@H](O)[C@@H]3OP(=O)(O)O)CC[C@@H]12	steady-state kinetics	–	pH 7.5, 25 °C	Km	0.63 µM
B10	itself	SEC	–	–	binding	binds
